# Measurements collected from several papers.
# Numbered parts are unrelated; each lists some results of a single study. “And” joins repeats or separate records; there may be more than shown.
# UniProt Q96SW2, sequence (whole entry, looked up): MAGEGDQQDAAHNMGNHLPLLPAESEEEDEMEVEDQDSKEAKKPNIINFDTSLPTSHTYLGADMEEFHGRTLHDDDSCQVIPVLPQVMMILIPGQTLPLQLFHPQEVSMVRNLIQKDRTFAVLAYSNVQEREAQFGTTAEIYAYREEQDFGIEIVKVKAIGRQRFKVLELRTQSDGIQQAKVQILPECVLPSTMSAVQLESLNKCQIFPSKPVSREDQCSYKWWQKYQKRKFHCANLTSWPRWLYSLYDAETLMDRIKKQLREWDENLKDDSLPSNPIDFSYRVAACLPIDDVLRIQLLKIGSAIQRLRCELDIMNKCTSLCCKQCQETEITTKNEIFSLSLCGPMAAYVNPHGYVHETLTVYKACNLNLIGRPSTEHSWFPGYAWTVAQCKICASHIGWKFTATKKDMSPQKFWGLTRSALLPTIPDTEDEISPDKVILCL
# UniProt P00519, sequence (whole entry, unmodified, looked up): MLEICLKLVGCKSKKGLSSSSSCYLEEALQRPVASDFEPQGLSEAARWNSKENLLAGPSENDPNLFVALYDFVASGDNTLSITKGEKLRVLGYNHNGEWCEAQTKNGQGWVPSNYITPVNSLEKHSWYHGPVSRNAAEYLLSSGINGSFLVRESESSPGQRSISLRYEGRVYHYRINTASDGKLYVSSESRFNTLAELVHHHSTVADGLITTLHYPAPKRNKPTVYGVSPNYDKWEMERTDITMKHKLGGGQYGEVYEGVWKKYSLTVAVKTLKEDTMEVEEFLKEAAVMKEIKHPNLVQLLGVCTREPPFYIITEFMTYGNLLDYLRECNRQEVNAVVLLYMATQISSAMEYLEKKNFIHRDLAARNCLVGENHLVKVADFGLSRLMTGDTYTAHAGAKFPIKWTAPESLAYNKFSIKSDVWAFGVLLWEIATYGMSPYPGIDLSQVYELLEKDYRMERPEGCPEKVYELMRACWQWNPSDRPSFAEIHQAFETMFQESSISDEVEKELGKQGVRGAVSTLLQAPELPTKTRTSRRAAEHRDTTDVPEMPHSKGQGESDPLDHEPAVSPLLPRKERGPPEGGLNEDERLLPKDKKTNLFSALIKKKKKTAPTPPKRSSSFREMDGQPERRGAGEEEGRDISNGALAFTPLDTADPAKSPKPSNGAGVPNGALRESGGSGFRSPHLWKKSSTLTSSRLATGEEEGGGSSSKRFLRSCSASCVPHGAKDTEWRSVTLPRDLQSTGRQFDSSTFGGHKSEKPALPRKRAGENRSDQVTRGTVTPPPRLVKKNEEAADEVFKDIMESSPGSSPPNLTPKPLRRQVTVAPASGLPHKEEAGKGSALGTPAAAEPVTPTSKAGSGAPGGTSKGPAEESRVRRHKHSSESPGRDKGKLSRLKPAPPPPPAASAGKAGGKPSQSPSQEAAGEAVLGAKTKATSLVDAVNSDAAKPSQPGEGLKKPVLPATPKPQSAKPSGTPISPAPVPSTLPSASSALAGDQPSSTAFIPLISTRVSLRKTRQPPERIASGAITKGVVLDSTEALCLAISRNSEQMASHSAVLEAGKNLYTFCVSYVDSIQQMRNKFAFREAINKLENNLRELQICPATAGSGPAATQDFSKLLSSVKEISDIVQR
# UniProt P10721, sequence (whole entry, unmodified, looked up): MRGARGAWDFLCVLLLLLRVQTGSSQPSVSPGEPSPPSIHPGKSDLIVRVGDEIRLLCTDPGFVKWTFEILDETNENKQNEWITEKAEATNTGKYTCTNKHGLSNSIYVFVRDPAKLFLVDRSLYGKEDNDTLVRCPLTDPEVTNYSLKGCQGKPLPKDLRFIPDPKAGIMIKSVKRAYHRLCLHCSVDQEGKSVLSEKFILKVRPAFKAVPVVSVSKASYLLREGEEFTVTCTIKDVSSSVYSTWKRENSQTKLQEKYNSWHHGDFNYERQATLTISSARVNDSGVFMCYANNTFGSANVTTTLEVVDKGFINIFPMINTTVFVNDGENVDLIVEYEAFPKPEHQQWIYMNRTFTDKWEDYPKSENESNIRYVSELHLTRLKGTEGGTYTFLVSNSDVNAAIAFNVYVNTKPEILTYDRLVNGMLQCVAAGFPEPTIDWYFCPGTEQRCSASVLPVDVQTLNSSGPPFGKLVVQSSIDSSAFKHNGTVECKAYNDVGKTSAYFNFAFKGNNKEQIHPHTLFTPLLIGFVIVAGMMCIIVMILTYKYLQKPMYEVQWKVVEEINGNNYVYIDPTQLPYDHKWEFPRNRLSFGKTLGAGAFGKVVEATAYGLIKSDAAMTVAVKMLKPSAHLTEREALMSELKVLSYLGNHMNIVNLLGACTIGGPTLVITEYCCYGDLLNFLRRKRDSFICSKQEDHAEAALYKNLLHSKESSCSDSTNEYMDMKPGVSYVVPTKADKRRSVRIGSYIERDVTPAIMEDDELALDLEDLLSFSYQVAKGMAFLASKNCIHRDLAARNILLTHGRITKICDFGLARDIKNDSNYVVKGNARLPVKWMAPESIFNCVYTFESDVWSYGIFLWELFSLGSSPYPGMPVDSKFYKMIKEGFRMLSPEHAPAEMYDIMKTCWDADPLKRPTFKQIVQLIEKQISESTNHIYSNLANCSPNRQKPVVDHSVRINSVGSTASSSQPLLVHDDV
# UniProt P49336, sequence (whole entry, looked up): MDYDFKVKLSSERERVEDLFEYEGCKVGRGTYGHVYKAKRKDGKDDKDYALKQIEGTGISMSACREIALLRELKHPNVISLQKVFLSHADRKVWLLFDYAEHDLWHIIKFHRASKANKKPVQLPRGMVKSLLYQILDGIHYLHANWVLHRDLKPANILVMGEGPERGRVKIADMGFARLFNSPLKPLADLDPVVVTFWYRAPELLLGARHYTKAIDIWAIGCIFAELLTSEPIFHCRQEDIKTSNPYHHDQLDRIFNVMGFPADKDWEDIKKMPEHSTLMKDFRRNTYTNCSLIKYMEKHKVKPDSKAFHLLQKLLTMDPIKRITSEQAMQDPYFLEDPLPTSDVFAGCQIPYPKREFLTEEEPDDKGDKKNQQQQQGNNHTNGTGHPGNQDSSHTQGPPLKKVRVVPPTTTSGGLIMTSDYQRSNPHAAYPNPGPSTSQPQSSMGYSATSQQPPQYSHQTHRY

# Block 1
# Structure (SMILES): Cc1ccc(O)c(C)c1-c1cnc2[nH]c(-c3cnc(N4CCC5(CC4)CC(N4CCN(c6ccc(N[C@H]7CCC(=O)NC7=O)cc6F)CC4)CO5)nc3)cc2c1C#N (single isomer, unassigned)
# PKMYT1: Membrane-associated tyrosine- and threonine-specific cdc2-inhibitory kinase (PKMYT1, Homo sapiens, UniProt Q99640)
# UniProt Q99640, sequence (whole entry, looked up): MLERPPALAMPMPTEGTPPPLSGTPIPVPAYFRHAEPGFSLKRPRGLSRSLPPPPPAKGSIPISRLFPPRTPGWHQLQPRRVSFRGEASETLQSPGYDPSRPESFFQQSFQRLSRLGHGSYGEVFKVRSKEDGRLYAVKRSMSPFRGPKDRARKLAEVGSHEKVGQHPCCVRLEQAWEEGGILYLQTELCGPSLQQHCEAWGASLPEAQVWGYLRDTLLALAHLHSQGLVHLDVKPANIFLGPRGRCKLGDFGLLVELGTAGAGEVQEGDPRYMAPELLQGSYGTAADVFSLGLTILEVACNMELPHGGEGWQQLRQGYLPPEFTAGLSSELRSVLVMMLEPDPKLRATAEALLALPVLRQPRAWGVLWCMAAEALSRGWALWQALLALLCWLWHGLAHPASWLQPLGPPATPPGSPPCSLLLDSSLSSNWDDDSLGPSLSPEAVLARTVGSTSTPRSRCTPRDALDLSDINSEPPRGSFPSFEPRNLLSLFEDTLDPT
target or system,test,conditions,inhibition
NCI-H1568,cell growth,3333.33 nM,78.3%
PKMYT1,"enzyme activity, inhibitor",0.3333 µM,98.1%
HCC1569,"automated capillary immunoblot, item: CDK1 phospho-Thr14","1 nM, 8 h",-1.55%
RKO,cell proliferation,10000 nM,89.1%
NCI-H1568,cell proliferation,1.524 nM,-3.34% and 0.26% and -0.23%
HCC1569,"automated capillary immunoblot, item: CDK1 phospho-Thr14","1 nM, 24 h",14%
"Protein cereblon (CRBN, Homo sapiens, UniProt Q96SW2)",binding,41.15 nM,8.09% and 5.97%
PKMYT1,,3333.33 nM,101% and 99.5%
PKMYT1,,0.00015 µM,-4.07% and -4.26%
PKMYT1,,3.333 µM,98%
PKMYT1,,41.15 nM,94.7% and 93%
HCC1806,cell proliferation,4.572 nM,-4.34% and -2.8% and -0.86%

# Block 2
# Compound: Cc1ncsc1-c1ccc(C(CO)NC(=O)C2CC(O)CN2C(=O)C(C(C)C)n2cc(-c3ccc(COc4c(-c5c(C)c(F)cc6[nH]ncc56)c(C5CC5)cc5c(N6CC7CC6CN7)nc(OC6CCOCC6)nc45)cc3)nn2)cc1 (stereo not shown)
# Read-out: cell growth or viability
# Method: ATP luminescence
# Time: 6 days
cell line,concentration,viability
BXPC-3,0.3 µM,111% and 88.8% and 94.8% and 71.8%
PK-59,10 µM,2.55% and 1.61% and 1.46% and 0.789%
NCI-H1299,3 µM,119% and 123% and 130% and 109%
COLO 320,3 µM,91.9% and 88% and 86.1% and 88.5%
HPAC,0.3 µM,12.5% and 5.67% and 4.1% and 3.74%
GP2d,300 pM,61.7% and 83% and 74.4% and 61%
HT-29,10 nM,94.4% and 110% and 82.6% and 99.4%
SK-CO-1,1 µM,10.6% and 8.14% and 11.8% and 10.4%
COLO 320,3 nM,91.7% and 91% and 84.6% and 88%
A-375,1 µM,85.1% and 92.9% and 85.9% and 86%

# Block 3
# SMILES: C[C@@H]1CN(c2ccc(-c3cc(C(=O)NCCOCCOCCOCCOCCNC(=O)Cn4cc(-c5[nH]cc(C(=O)N[C@@H](CC(N)=O)c6ccc(F)c(Cl)c6)c5-c5ccc(Cl)cc5F)cn4)ccc3F)cc2NC(=O)c2c[nH]c(=O)cc2C(F)(F)F)C[C@H](C)N1C
# Read-out: thermal unfolding
# Method: differential scanning fluorimetry
# Concentration: 5.5 µM
# Reading: higher = more unfolded
# DCAF1: DDB1- and CUL4-associated factor 1 (DCAF1, Homo sapiens, UniProt Q9Y4B6)
# UniProt Q9Y4B6, sequence (whole entry, looked up): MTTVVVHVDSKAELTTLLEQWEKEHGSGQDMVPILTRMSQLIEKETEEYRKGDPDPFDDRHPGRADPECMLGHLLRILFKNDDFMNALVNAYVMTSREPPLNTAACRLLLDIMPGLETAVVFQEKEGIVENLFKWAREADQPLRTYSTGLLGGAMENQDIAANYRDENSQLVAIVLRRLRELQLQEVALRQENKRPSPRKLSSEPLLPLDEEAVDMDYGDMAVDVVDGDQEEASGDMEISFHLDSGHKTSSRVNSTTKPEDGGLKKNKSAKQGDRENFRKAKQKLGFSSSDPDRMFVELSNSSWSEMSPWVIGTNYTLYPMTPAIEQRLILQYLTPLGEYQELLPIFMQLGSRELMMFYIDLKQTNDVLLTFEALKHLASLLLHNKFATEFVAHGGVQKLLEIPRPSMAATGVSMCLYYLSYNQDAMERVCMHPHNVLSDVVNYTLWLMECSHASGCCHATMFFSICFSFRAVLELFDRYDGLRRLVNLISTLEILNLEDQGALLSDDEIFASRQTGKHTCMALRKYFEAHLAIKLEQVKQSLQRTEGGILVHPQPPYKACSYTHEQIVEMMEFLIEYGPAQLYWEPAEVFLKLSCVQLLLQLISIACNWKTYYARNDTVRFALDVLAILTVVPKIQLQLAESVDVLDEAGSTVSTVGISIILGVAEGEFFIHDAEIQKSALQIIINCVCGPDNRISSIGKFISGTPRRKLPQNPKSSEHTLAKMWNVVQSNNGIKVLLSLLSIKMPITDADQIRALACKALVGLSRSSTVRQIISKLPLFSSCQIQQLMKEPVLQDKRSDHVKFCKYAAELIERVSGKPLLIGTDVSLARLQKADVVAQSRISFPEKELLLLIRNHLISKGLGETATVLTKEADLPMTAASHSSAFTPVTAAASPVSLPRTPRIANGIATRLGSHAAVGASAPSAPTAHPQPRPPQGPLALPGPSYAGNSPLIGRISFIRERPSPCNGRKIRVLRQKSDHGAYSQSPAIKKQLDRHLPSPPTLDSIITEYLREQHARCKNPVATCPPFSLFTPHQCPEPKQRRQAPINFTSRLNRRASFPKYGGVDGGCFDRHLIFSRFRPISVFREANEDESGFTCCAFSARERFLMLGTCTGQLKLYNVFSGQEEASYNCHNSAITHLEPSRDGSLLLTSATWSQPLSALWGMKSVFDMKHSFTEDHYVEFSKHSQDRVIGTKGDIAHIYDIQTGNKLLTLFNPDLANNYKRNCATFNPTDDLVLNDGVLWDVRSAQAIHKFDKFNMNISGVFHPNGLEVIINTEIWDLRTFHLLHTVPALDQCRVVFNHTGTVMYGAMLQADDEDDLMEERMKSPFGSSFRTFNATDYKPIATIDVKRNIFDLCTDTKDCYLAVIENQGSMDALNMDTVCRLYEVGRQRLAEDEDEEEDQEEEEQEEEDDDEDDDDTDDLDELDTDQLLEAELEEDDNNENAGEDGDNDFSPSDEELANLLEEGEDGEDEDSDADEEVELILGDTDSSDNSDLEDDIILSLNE
# WDR5: WD repeat-containing protein 5 (WDR5, Homo sapiens, UniProt P61964)
target,temperature,SYPRO Orange fluorescence [a.u.]
DCAF1,82.61 °C,42000
WDR5,65.81 °C,7350
DCAF1,75.41 °C,48900
DCAF1,50.2 °C,14700
WDR5,91.21 °C,42200
WDR5,75.41 °C,11900
WDR5,69.01 °C,6730
DCAF1,80.81 °C,43500
DCAF1,74.41 °C,49900
WDR5,80.01 °C,23300
DCAF1,27.4 °C,7740

# Block 4
# Structure (SMILES): O=C(Nc1ccccc1)Nc1cccc(Oc2ccc3nccn3n2)c1
# Concentration: 1 µM
target,read-out,method,remaining binding
"CDK8 (Homo sapiens, UniProt P49336)",binding,competition with immobilised ligand,24%
"ANKK1 (Homo sapiens, UniProt Q8NFD2)",binding,,100%
"LIM domain kinase 1 (LIMK1, Homo sapiens, UniProt P53667)",,cell-free binding,100%
"EGFR (Homo sapiens, UniProt P00533, L861Q)",binding,,69%
"AAK1 (Homo sapiens, UniProt Q2M2I8)",binding,competition with immobilised ligand,100%
"NEK1 (Homo sapiens, UniProt Q96PY6)",binding,,100%
"FLT3 (Homo sapiens, UniProt P36888)",binding,competition with immobilised ligand,96%
"WNK4 (Homo sapiens, UniProt Q96J92)",binding,,83%
"CDK17 (Homo sapiens, UniProt Q00537)",binding,competition with immobilised ligand,95%
"CAMK1D (Homo sapiens, UniProt Q8IU85)",binding,,97%
"CLK3 (Homo sapiens, UniProt P49761)",binding,,100%
"ULK1 (Homo sapiens, UniProt O75385)",binding,,100%
"ROCK1 (Homo sapiens, UniProt Q13464)",binding,,100%
"ABL1 (Homo sapiens, UniProt P00519, M351T)",binding,,100%
"KIT (Homo sapiens, UniProt P10721, T670I/V559D)",binding,,80%
"CSF1R (Homo sapiens, UniProt P07333)",binding,competition with immobilised ligand,0.4%
"MAP4K1 (Homo sapiens, UniProt Q92918)",binding,competition with immobilised ligand,67%
"MKNK2 (Homo sapiens, UniProt Q9HBH9)",binding,competition with immobilised ligand,100%
"KIT (Homo sapiens, UniProt P10721, D816H)",binding,,100%
"PAK2 (Homo sapiens, UniProt Q13177)",binding,,100%
"ABL1 (Homo sapiens, UniProt P00519, Y253F)",binding,,100%
"MAP2K6 (Homo sapiens, UniProt P52564)",binding,,100%
